Assay results collected from several papers.
“And” joins repeats or separate records; there may be more than shown. Numbers after ± are the reported error.
DRD3: D(3) dopamine receptor (DRD3, Homo sapiens, UniProt P35462)
Penicillin-binding protein 2B: Penicillin-binding protein 2B (Streptococcus pneumoniae, UniProt P0A3M6)

CC1(C)CC(NC(=O)C(=O)Nc2ccc(Cl)cc2)CC(C)(C)N1
binding free energy (Envelope glycoprotein gp160, gp120 (env, Human immunodeficiency virus type 1 group M subtype B, UniProt P35961); urea denaturation, Trp fluorescence; PBS; 100 µM, pH 7.5): -6.9 kcal/mol

CC(=O)O[C@H]1C[C@@H]2CC[C@@H]3[C@H](CC[C@@]4(C)[C@H]3C[C@H]([N+]3(C)CCCCC3)[C@@H]4OC(C)=O)[C@@]2(C)C[C@@H]1[N+]1(C)CCCCC1
efficacy (Cholinesterase (BCHE, Homo sapiens, UniProt P06276); concentration not given, Triton): -115 ± 9.21%

C[C@H]1COCCN1c1nc(NCc2cccnc2C(F)(F)F)c2cccnc2n1
IC50 (Insulin receptor (INSR, Homo sapiens, UniProt P06213); binding; CEREP panel): > 100 µM

O=C(Nc1cnccc1Cl)N1CCN(Cc2ccc3c(c2)OC(F)(F)O3)CC1
inhibition of binding (HRH1 (Homo sapiens, UniProt P35367); radioligand binding; 50 µM, with: [3H]pyrilamine): 23%

Cc1ccc(NC(=O)c2ccc(CN3CCN(C)CC3)cc2)cc1Nc1nccc(-c2cncc(-c3oncc3C)c2)n1
remaining activity (DDR1/DDR2; KinaseProfiler; 500 nM): ≤ 50%

[2H]c1c([2H])c([C@]2([2H])CCCN2C(=O)C(C)(C)Oc2ccc3cn[nH]c3c2)c([2H])c([2H])c1C([2H])([2H])[2H]
remaining binding (Tyrosine-protein kinase ABL1, phosphorylated (ABL1, Homo sapiens, UniProt P00519); KINOMEscan; 1 µM; relative to: DMSO control): 74%

Nc1cnn(-c2ccccc2)c(=O)c1Cl
EC10 (PPARG (Homo sapiens, UniProt P37231); reporter gene, agonist, β-lactamase reporter; HEK293-H cells; freely dissolved concentration): 28 µM

Cc1[nH]c(C)c(S(=O)(=O)Nc2ccc(S(F)(F)(F)(F)F)cc2)c1C(=O)N1CCC(F)(F)C1
Bmax increase (DRD3; binding; membranes; 100 µM, with: [3H]dopamine): 64%

C[C@H](CCC(=O)O)[C@H]1CC[C@H]2[C@@H]3CC[C@@H]4C[C@H](O)CC[C@]4(C)[C@H]3CC[C@]12C
delta Tm (MerR family transcriptional regulator (Clostridioides difficile, UniProt Q181I6); differential scanning fluorimetry; 63 µM; decrease): ~5 °C

O=C(O[C@H]1C[C@H]2CC[C@@H](C1)[N+]21CCCC1)C(O)(c1ccccc1)c1ccccc1
efficacy (Cholinesterase (BCHE, Homo sapiens, UniProt P06276); concentration not given, Triton): -80.4 ± 12.1%

Cc1c(Cl)c(=O)oc2cc(OCCCC[Se]C#N)ccc12
selectivity ratio (CA12 (Homo sapiens, UniProt O43570); stopped-flow CO2 hydration; relative to: Ki CA II over Ki CA XII): > 1400

CCCCCCCCCCC[C@@H](C[C@@H]1OC(=O)[C@H]1CCCCCC)OC(=O)[C@H](CC(C)C)NC=O
efficacy (Cholinesterase (BCHE, Homo sapiens, UniProt P06276); concentration not given, Triton): -73.8 ± 6.76%

COc1ccc2c3c([nH]c2c1)CCN(C)CC3.O=C(O)/C=C/C(=O)O
Hill coefficient (Chrna7 (Rattus norvegicus, UniProt Q05941); ion current, inhibitor, two-electrode voltage clamp; Xenopus laevis oocytes, rat; with: 100 µM acetylcholine): 1.9 ± 0.2

O=C(O)Cc1c[nH]cn1
fraction bound (SLC6A6 (Homo sapiens, UniProt P31641, Y138A); binding, microscale thermophoresis; 35.1 nM, fitted curve; higher = more binding): 0.000203

COc1c(N2CC3CCCNC3C2)c(F)cc2c(=O)c(C(=O)OCc3cnc([N+](=O)[O-])s3)cn(C3CC3)c12.O=C(O)C(F)(F)F (centres unmarked)
time to near complete conversion (nfsB (Escherichia coli K-12, UniProt P38489); substrate, fluorimetry, refers to: moxifloxacin release; 10 µM, with: NADH 100 µM): < 30 s

CC[C@@H](C)[C@@H](NC(=O)[C@@H](Cc1ccc(O)cc1)NC(=O)[C@H]1CCCN1C(=O)[C@@H](CCCNC(=N)N)NC(=O)[C@H](N)Cc1c[nH]cn1)C(=O)N[C@H](C)C(=O)N[C@H](Cc1c[nH]cn1)C(=O)N[C@H](CCCNC(=N)N)C(=O)N[C@H](CCCCNC(=O)c1cccc(S(=O)(=O)F)c1)C(=O)N[C@H](Cc1ccc(O)cc1)C(=O)N[C@H](CO)C(=O)N[C@H](Cc1ccccc1)C(N)=O
surface TFRC expression (Transferrin receptor protein 1 (Tfrc, Mus musculus, UniProt Q62351); flow cytometry; DC2.4; 6 h, pH 7.4, unit not given; relative to: 0 h): 0.74

COc1cc(Br)cc(Br)c1Oc1cc(Br)cc(Br)c1O
Vmax/Km (SULT1B1 (Homo sapiens, UniProt O43704); sulfonation, substrate): 4860 µL/min/mg

CN(C)C(=O)Oc1ccc(/C=C/C(=O)NC2CCN(Cc3ccccc3)CC2)cc1
selectivity ratio (Cholinesterase (BCHE, Equus caballus, UniProt P81908); Ellman; equine serum BuChE; relative to: AChE IC50 over BuChE IC50): 0.5

COc1cc(Nc2ncc(F)c(Nc3ccc4c(n3)NC(=O)C(C)(C)O4)n2)cc(OC)c1OC
inhibition (MAPK11 (Homo sapiens, UniProt Q15759); KINOMEscan; 10 µM, p38-beta): 0%

O=C(c1ccc(Cl)cc1)N1CCN2C(=O)N(OC(=O)N3CCOc4ccccc43)C(=O)C2C1 (centres unmarked)
peptide ratio (Cholinesterase (BCHE, Homo sapiens, UniProt P06276); MS-based ABPP; SW-620 conditioned medium; 10 µM, 1 h, 37 °C; relative to: compound over DMSO, lower = more inhibition): 1.26 and 1.27 and 1.23 and 1.07

Cc1cc(C)n2c1C=C1C=CC(CCC(=O)Nc3ccc(OCC(=O)N[C@@H]4C(=O)N5[C@@H]4SC(C)(C)[C@@H]5C(=O)[O-])cc3)=[N+]1[B-]2(F)F.[Na+]
kinact/KI (Penicillin-binding protein 2B; whole-cell time course; live Streptococcus pneumoniae cells): 15700 ± 500 M⁻¹ s⁻¹

NCC(=O)NCCC(c1ccccc1)c1ccccc1
IC50 (Plasmodium falciparum; GB4): 1.58 µM

CN(C(=O)n1cnc(-c2ccc[n+]([O-])c2)c1)C1CCCCC1
inhibition (GABAA receptor chloride channel, rat; binding; 50 µM, with: [3H]TBOB): 29%

CN1CCN(c2cc(-c3ccncc3)c(-c3ccc4ccccc4c3)nn2)CC1
activation (FFAR4 (Homo sapiens, UniProt Q5NUL3); agonist, FLIPR; 12.5 µM): -0.1%

Oc1ccc(-c2cccc(Cl)c2)cc1Cl
maximum activity (Androgen receptor (AR, Homo sapiens, UniProt P10275); reporter gene, antagonist; 5 µM, with: DHT 2 nM; relative to: DHT 2 nM): 24%

O=C(Nc1cccnn1)N1CCC(=Cc2cccc(Oc3ccc(C(F)(F)F)cn3)c2)CC1
inhibition of binding (DRD3; radioligand binding; 50 µM, with: [3H]spiperone): 35%

C[C@H](CCC(=O)N[C@@H](CCC(=O)O[C@H]1C[C@H](n2cc(F)c(=O)[nH]c2=O)O[C@@H]1CO)C(=O)O)[C@H]1CC[C@H]2[C@@H]3[C@H](O)C[C@@H]4C[C@H](O)CC[C@]4(C)[C@H]3CC[C@]12C
normalised Vmax (SLC10A1 (Homo sapiens, UniProt Q14973); uptake, substrate; HEK293 expressing NTCP; relative to: taurocholate): 0.0187

CCN1CCN(C(=O)N[C@@H](C(=O)N[C@@H]2C(=O)N3[C@@H]2SC(C)(C)[C@@H]3C(=O)O)c2ccccc2)C(=O)C1=O
kinact/KI (Penicillin-binding protein 2B; inhibitor): 15000 ± 810 M⁻¹ s⁻¹

NC(=O)N/N=C/c1ccc([N+](=O)[O-])o1
kcat (nfsB (Escherichia coli K-12, UniProt P38489, K14E); pH 7.0, 37 °C, with: 110 µM NADPH): < 0.03 s⁻¹

COc1cc(N)c(Cl)cc1C(=O)NC1CN2CCC1CC2 (centres unmarked)
log2 fold change (Trace amine-associated receptor 9 (TAAR9, Homo sapiens, UniProt Q96RI9); β-arrestin recruitment, TANGO luminescence, refers to: TAAR9; concentration not given; relative to: basal luminescence): 0.079

COc1ccc(N2C(=O)N(c3c(C)cccc3Cl)Cc3cnc(Nc4ccc(C5CCN(C)CC5)cc4OC)nc32)nc1
inhibition (SPHK1 (Homo sapiens, UniProt Q9NYA1); kinase activity; 0.5 µM): 2.33%

CN(C)CCOC(C)(c1ccccc1)c1ccc(Cl)cc1 (centres unmarked)
efficacy (Cholinesterase (BCHE, Homo sapiens, UniProt P06276); concentration not given, Triton): -102 ± 2.41%

CC(=O)c1cnc2ccc(-c3cc(Cl)c(O)c(Cl)c3)nc2c1N[C@H]1CC[C@H](CN(C)C)CC1
fold change of KD (Probable receptor-like protein kinase At5g59700 (Arabidopsis thaliana, UniProt Q9FN92); binding, SPR; concentration not given; relative to: FER): 48.5

Nc1ccn([C@H]2C[C@H](O)[C@@H](COP(=O)(O)OP(=O)(O)OP(=O)(O)O)O2)c(=O)n1
kcat (Gag-Pol polyprotein, reverse transcriptase (gag-pol, Human immunodeficiency virus type 1 group M subtype B, UniProt P04585, K653N); nucleotide misincorporation, steady-state kinetics; K66N RT, with: matched template/primer, template T): 0.115 ± 0.0387 s⁻¹

CC(=O)N[C@@H](C)C(=O)N1CCC[C@H]1C(=O)N[C@@H](CC(C)C)C(=O)N[C@H](C(=O)N[C@@H](CCCNC(=N)N)C(=O)NCC(=O)N[C@@H](CO)C(=O)N[C@@H](CS)C(=O)N[C@@H](CCCNC(=N)N)C(=O)N[C@@H](CCCCN)C(=O)N[C@@H](CCCNC(=N)N)C(=O)N[C@@H](CC(N)=O)C(=O)N[C@@H](CCCNC(=N)N)C(=O)N[C@@H](CO)C(=O)N1CCC[C@H]1C(=O)N[C@@H](CCC(=O)O)C(=O)N[C@@H](CCCNC(=N)N)C(N)=O)[C@@H](C)O
binding stoichiometry (WDR5 (Homo sapiens, UniProt P61964); isothermal titration calorimetry; concentration not given, pH 7.0, 20 °C): 1.23

C[C@H]1CN(c2n[nH]c3nc(N[C@H]4CC[C@H](NS(=O)(=O)CCC(F)(F)F)CC4)ncc23)CCO1
relative abundance (HSD17B4 (Homo sapiens, UniProt P51659); inhibitor, Kinobeads competition profiling; 0.032 µM; relative to: vehicle): 1

COc1cc2nccc(Oc3ccc(NC(=O)c4cc5c(n(-c6ccccc6)c4=O)CCCC5=O)nc3)c2cc1OC
selectivity ratio (ABL1 (Homo sapiens, UniProt P00519); cell viability, CellTiter-Glo; Ba/F3 expressing recombinant kinase; relative to: ABL1 IC50 over AXL IC50): > 100

O=C(/C=C/c1ccc(OC(=O)N2CCCC2)cc1)NC1CCN(Cc2ccccc2)CC1
selectivity ratio (Cholinesterase (BCHE, Equus caballus, UniProt P81908); Ellman; equine serum BuChE; relative to: AChE IC50 over BuChE IC50): 0.2
